Measured values pooled from the literature.
Compare with care: the assays were run in different laboratories. ± marks the error that the study gave.

Cc1cc([C@H]2C[C@H]3[C@@H](CF)SC(N)=N[C@@]3(c3ccc(F)cc3F)CO2)on1  brain concentration (male 129/SVE wild-type mouse, brain; subcutaneous, 100 mg/kg, 9 h): 0.044 µM
CCOc1c([C@H](C)n2nc(C)c3c(N)ncnc32)cc(Cl)c(F)c1[C@@H]1CNC(=O)C1  observations QTcF >480 ≤500 ms (ECG; previously treated B-cell malignancy patients; oral, 10 mg once daily, baseline QTcF ≤450 ms): 0%
O=C(N/N=C/c1ccccc1O)c1ccncc1  stability (DMEM cell medium; 4 µM, 7 days, -80 °C, long-term storage): 102%
CC(=O)N=S(=O)(O)c1ccc(N/C=C2\C(=O)Nc3ccc4ncsc4c32)cc1  logP (octanol/buffer, 40 mM buffer; pH 11): 1.01
Cc1nn(C2CC2)c(=O)c2nn(C)c(Cc3ccc(C(F)(F)F)c(C#N)c3)c12  CLint,u (rat Sprague-Dawley male, blood; intravenous, 1 mg/kg): 13.8 mL/min/kg
O=C(Nc1nc2cccc(-c3ccc(CN4CCS(=O)(=O)CC4)cc3)n2n1)C1CC1  treatment-emergent adverse events (measured: dyspepsia; human rheumatoid arthritis patients; oral, 75 mg once daily, 4 weeks, regardless of relatedness): 9.1%
CO[C@H]1/C=C/O[C@@]2(C)Oc3c(C)c(O)c4c(O)c(c(/C=N/N5CCN(C)CC5)c(O)c4c3C2=O)NC(=O)/C(C)=C\C=C\[C@H](C)[C@H](O)[C@@H](C)[C@@H](O)[C@@H](C)[C@H](OC(C)=O)[C@@H]1C  adverse event incidence (measured: general administration site conditions; healthy human participants; oral, 600 mg, together with: gepotidacin 1500 mg): 6%
Cc1nc2c([nH]1)c(=O)n(C)c(=O)n2Cc1ccco1  inhibition (male rat liver microsomes; 40 µM, 3 h, together with: DHA-Na 5 mg/L): 17.6 ± 2.68%
CN(CCCN1CCN(C(=O)CN2CCN(CC(=O)[O-])CCN(CC(=O)[O-])CCN(CC(=O)[O-])CC2)CC1)c1ccc2nccc(C(=O)NCC(=O)N3CC(F)(F)C[C@H]3C#N)c2c1.[68Ga+3]  uptake (mice, HT-1080.hFAP and HT-1080 wild-type xenografts, intestine; iv, 500 pmol, 1 h post injection): 0.3 ± 0.1 %IA/g
Cc1ccc([C@@H]2O[C@H](CO)[C@@H](O)[C@H](O)[C@H]2O)cc1Cc1ccc(-c2ccc(F)cc2)s1  urinary calcium excretion change (Japanese type 2 diabetes patients; 25 mg, day 2, 24 h urine collection; reference: baseline): 1.31 mg
C[C@@H](O)[C@H](NC(=O)c1ccc(C#Cc2ccccc2)cc1)C(=O)NCC1(C)NC(=O)NC1=O (some centres unmarked)  logP (octanol/buffer; pH 11): 0.99
COc1ccc2c3c([nH]c2c1)[C@H](CC(C)C)N1C(=O)[C@H](CC(=O)NC(C)C)NC(=O)[C@@H]1C3  concentration (wild-type mouse, male, serum; oral, 100 mg/kg, 2 h): 40.9 µM
C[C@@H](Nc1cc(F)cc(F)c1)c1cc(C(=O)N(C)C)cc2c(=O)cc(N3CCOCC3)oc12  related serious adverse events (measured: Fatigue; advanced solid tumour patients; oral, dose not given, dose finding): 0%
CCn1cc(C(=O)N2CCOCC2)c(=O)c2cc(NC3Cc4ccccc4C3)cnc21  Cmax (human, fasted, plasma; oral, 600 mg single dose, tablet, arithmetic mean): 3410 ng/mL
CNC(=O)c1ccc(-c2cnc3ncc(Cc4ccc5ncccc5c4)n3n2)cc1F  Chills dose reduction/interruption (Japanese patients; oral, 400 mg, grade 3/4): 0%
COc1ccnc(C[S+]([O-])c2nc3ccc(OC(F)F)cc3[nH]2)c1OC (centres unmarked)  dose-normalised AUC (human, plasma; intravenous, dose not given, median): 9 µg·h/mL per mg/kg
O=C(O)CCC(=O)O.[2H]C([2H])([2H])Oc1cc(C)c2[nH]ccc2c1CN1CC[C@@H](C2CC2)C[C@H]1c1ccc(C(=O)O)cc1  TEAE urinary sediment detected (healthy Chinese subjects; 100 mg, single ascending dose): 0%
COc1ccc2c(c1)CN(C(=O)CCN1CCC(Cc3ccccc3)CC1)CC[S@@+]2[O-]  fu (dog plasma; 100 ng/mL): 0.245
N[C@H]1C(O)O[C@H](CO)[C@@H](O)[C@@H]1O (some centres unmarked)  osmolality (aqueous solution; 20 mM, together with: glucose): 17 mOsmol/kg
CC(C)c1nc(N(C)S(C)(=O)=O)nc(-c2ccc(F)cc2)c1/C=C/[C@@H](O)C[C@@H](O)CC(=O)O  Vd/F (human, plasma; oral, 20 mg, day 2, geometric mean, alone): 8700 L

For quick reference, copied from above:
O=C(Nc1nc2cccc(-c3ccc(CN4CCS(=O)(=O)CC4)cc3)n2n1)C1CC1  treatment-emergent adverse events (measured: dyspepsia; human rheumatoid arthritis patients; oral, 75 mg once daily, 4 weeks, regardless of relatedness): 9.1%
Cc1nn(C2CC2)c(=O)c2nn(C)c(Cc3ccc(C(F)(F)F)c(C#N)c3)c12  CLint,u (rat Sprague-Dawley male, blood; intravenous, 1 mg/kg): 13.8 mL/min/kg
